Experimental data pooled from the literature.
A part holds a random share of what one study measured.
Sequence of UniProt O00329 (whole entry, looked up): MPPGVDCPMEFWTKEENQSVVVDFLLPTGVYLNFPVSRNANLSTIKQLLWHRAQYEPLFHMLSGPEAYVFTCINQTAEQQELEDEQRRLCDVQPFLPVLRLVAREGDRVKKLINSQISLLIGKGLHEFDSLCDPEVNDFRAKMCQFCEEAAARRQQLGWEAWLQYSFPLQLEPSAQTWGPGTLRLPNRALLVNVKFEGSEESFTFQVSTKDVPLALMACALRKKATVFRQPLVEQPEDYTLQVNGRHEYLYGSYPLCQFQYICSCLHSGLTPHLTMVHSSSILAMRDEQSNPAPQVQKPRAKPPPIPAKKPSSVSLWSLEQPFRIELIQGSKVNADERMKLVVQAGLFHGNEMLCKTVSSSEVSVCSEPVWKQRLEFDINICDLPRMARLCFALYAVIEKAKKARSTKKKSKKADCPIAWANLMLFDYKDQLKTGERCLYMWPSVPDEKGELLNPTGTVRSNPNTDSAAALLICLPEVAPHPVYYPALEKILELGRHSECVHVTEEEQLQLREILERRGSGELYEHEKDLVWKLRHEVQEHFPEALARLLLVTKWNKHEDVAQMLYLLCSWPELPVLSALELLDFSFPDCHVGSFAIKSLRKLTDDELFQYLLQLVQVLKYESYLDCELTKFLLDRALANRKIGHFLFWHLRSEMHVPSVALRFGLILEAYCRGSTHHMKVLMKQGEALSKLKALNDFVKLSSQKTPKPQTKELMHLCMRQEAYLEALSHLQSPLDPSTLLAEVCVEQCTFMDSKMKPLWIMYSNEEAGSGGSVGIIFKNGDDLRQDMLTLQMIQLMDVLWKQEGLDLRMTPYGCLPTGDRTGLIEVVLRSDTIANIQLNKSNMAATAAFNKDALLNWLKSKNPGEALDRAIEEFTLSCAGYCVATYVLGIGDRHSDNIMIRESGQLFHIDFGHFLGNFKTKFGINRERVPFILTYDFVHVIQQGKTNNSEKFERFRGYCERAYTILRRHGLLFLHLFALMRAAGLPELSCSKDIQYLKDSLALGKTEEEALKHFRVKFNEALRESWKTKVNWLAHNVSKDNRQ
Sequence of UniProt P08581 (whole entry, looked up): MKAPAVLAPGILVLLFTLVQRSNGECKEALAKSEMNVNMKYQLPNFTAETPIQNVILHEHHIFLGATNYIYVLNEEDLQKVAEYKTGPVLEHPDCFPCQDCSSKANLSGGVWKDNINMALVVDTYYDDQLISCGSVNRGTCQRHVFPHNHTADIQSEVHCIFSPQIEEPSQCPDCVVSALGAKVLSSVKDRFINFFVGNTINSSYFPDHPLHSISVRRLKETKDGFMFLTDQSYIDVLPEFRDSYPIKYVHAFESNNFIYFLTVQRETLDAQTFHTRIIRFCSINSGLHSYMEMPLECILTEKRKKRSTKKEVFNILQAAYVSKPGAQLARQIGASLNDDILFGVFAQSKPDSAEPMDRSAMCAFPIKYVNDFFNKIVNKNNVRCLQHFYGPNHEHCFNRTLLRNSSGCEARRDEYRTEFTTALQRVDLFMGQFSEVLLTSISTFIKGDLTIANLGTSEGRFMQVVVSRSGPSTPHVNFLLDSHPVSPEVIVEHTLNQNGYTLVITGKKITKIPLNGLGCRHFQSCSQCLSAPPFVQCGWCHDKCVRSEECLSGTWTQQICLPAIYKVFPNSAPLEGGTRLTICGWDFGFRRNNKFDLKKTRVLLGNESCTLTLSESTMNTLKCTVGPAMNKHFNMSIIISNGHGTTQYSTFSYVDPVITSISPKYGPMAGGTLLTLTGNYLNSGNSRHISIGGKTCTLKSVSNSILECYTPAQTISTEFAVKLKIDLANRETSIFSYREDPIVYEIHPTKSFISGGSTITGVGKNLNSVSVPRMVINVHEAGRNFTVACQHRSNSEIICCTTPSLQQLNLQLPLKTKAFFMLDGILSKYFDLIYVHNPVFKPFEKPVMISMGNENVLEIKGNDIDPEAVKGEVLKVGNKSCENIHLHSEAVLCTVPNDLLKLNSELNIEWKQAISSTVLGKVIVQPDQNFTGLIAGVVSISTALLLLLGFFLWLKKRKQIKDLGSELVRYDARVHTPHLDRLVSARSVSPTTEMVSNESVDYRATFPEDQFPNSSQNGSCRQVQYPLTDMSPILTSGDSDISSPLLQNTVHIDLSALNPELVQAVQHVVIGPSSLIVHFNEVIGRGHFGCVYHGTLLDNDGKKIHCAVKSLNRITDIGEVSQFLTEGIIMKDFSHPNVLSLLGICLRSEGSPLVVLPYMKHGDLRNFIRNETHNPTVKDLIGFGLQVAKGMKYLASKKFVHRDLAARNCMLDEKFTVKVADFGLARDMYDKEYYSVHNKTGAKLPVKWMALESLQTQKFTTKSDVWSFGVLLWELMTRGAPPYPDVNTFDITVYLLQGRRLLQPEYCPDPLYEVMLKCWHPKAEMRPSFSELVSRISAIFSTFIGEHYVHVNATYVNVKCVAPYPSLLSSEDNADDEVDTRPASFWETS
Sequence of UniProt Q9C098 (whole entry, looked up): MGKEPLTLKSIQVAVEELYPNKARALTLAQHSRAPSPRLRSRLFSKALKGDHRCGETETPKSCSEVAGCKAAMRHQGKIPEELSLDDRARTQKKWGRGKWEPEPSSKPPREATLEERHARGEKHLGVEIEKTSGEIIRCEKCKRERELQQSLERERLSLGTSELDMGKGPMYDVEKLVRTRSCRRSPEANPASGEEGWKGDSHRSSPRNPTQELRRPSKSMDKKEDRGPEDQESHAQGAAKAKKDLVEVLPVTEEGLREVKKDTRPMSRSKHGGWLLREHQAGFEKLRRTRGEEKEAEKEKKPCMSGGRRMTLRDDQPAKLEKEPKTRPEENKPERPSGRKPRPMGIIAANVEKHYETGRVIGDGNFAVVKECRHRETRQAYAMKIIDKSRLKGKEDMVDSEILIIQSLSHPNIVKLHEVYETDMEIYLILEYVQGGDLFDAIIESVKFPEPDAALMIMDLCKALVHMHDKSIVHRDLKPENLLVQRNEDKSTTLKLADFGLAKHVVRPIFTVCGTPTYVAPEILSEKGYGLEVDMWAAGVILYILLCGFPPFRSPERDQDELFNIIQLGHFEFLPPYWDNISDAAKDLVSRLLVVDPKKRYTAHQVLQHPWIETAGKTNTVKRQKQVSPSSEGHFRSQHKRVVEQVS
Sequence of UniProt Q13188 (whole entry, looked up): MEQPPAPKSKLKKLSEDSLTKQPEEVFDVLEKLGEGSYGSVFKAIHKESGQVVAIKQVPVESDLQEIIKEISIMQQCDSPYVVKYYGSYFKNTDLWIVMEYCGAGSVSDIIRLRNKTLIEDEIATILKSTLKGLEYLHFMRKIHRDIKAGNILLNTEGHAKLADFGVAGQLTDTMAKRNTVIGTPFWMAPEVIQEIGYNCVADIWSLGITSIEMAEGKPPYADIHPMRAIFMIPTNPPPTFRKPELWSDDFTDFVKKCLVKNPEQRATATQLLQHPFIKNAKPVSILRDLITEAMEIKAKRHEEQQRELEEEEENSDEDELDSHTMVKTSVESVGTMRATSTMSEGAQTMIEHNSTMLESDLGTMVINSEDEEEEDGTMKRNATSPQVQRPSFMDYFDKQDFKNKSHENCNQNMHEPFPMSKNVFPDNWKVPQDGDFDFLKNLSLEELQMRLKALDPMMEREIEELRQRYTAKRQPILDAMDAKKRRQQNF
Sequence of UniProt P36507 (whole entry, looked up): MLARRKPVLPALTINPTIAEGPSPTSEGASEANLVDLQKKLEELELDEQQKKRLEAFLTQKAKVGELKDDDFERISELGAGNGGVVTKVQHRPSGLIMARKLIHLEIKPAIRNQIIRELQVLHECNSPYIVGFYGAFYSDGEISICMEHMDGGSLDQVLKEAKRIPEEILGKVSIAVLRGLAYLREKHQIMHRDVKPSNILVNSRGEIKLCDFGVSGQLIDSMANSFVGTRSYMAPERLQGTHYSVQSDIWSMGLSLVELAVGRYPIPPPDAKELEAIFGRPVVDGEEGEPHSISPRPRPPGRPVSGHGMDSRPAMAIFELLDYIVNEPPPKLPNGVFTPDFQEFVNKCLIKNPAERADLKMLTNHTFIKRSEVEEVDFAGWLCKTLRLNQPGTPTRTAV
Sequence of UniProt P10721 (whole entry, unmodified, looked up): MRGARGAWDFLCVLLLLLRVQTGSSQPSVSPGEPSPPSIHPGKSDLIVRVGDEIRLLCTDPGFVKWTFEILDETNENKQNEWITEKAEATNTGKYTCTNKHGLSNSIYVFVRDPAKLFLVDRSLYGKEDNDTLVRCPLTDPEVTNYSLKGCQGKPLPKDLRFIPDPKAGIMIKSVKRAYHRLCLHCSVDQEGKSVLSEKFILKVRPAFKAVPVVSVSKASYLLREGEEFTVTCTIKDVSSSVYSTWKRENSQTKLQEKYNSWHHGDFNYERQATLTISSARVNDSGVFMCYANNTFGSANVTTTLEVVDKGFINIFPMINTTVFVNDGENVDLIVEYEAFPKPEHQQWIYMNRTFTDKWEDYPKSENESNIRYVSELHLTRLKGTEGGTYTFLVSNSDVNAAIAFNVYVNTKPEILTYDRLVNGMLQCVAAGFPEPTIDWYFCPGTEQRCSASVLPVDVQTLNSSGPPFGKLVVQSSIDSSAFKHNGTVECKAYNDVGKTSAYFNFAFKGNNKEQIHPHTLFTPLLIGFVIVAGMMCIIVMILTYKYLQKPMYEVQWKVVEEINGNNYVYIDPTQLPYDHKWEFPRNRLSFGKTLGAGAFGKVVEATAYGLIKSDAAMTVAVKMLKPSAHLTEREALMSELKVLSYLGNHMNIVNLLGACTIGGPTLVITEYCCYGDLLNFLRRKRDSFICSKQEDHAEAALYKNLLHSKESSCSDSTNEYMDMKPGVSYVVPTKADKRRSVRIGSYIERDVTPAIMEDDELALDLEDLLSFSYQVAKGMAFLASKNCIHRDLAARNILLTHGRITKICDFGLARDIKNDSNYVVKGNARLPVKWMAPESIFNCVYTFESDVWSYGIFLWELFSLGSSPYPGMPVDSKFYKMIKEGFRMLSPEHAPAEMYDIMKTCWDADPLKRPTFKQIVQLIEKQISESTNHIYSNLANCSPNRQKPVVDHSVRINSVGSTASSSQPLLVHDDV

Block 1
Species: human
Matrix: microsomes or S9
Tested at: 2 µM
Time: 0.5 h
`O=S(=O)(c1ccc2c(c1)OCCO2)n1cnc2ccccc21` has a remaining compound of 0.195%.
The remaining compound of `COc1cc(C2N=C(N3CCc4ccccc43)N=C3NC(C)=CC(=O)N32)ccc1O` (stereo not drawn) is reported as 23.2%.
`c1ccc2c(Sc3nccc4ccccc34)nccc2c1` has a remaining compound of 4.83%.
`c1ccc2c(c1)CCN(c1nnc(-n3cccc3)s1)C2` gave a remaining compound of 35.5%.
With `Cc1cccc(NC2=CC(c3cccs3)N(c3cccc(C)c3)C2=O)c1` (stereo not drawn) the remaining compound was 72.7%.

Block 2
SMILES: CC(=O)N1CCC(c2ccc(C(=O)NC3=NCCN3)cc2C(F)(F)F)CC1
Effect on: cell-free assay
Technique: competition with immobilised ligand
Tested at: 1 µM
Serine/threonine-protein kinase DCLK3 (DCLK3, Homo sapiens, UniProt Q9C098) — remaining binding: 100%.
It gave 93% for remaining binding (Serine/threonine-protein kinase Nek10 (NEK10, Homo sapiens, UniProt Q6ZWH5)).
The remaining binding was 100% (Mitogen-activated protein kinase kinase kinase 11 (MAP3K11, Homo sapiens, UniProt Q16584)).
The remaining binding was 100% (Tyrosine-protein kinase Yes (YES1, Homo sapiens, UniProt P07947)).
It gave 100% for remaining binding (Hepatocyte growth factor receptor (MET, Homo sapiens, UniProt P08581)).
It gave 100% for remaining binding (Serine/threonine-protein kinase 3 (STK3, Homo sapiens, UniProt Q13188)).
The remaining binding was 100% (Phosphatidylinositol 4,5-bisphosphate 3-kinase catalytic subunit delta isoform (PIK3CD, Homo sapiens, UniProt O00329)).
For Epidermal growth factor receptor (EGFR, Homo sapiens, UniProt P00533, G719S): remaining binding read 100%.
For Dual specificity protein kinase CLK1 (CLK1, Homo sapiens, UniProt P49759): remaining binding read 100%.
It gave 100% for remaining binding (Dual specificity protein kinase CLK4 (CLK4, Homo sapiens, UniProt Q9HAZ1)).
Dual specificity mitogen-activated protein kinase kinase 2 (MAP2K2, Homo sapiens, UniProt P36507) — remaining binding: 100%.
For Mast/stem cell growth factor receptor Kit (KIT, Homo sapiens, UniProt P10721, A829P): remaining binding read 100%.
Tyrosine-protein kinase ABL1, phosphorylated (ABL1, Homo sapiens, UniProt P00519, Q252H) — remaining binding: 86%.
It gave 100% for remaining binding (Mitogen-activated protein kinase kinase kinase kinase 5 (MAP4K5, Homo sapiens, UniProt Q9Y4K4)).
It gave 0.5% for remaining binding (Rho-associated protein kinase 1 (ROCK1, Homo sapiens, UniProt Q13464)).
The remaining binding was 100% (Epidermal growth factor receptor (EGFR, Homo sapiens, UniProt P00533, del752-759)).

Block 3
SMILES: CC(C)n1cnc(-c2ccc(F)cc2)c1-c1ncc(C(=O)Nc2ccc(N3CCN(C)CC3)cc2)[nH]1
Species: IPF patients
It gave 85.7% for “any adverse event incidence” (30 mg once daily, without standard of care).
The “any adverse event incidence” was 81.8% (60 mg once daily, adverse event, added: standard of care).
The “any adverse event incidence” was 85.7% (60 mg once daily, without standard of care).

Block 4
Cell line: mouse MPNST tumor cells
Technique: high-content immunofluorescence imaging
Item: nuclear SOX9
Tested at: 10 µM
Time: 12 h
Setting: mean of 2 replicates
Relative to: DMSO control
Direction: higher = more nuclear SOX9
For `Cc1cc(=O)oc2cc(O)ccc12`, “nuclear SOX9 intensity” read 85.1 % of DMSO.
`Cn1cc(-c2ccc3c(c2)CCN3C(=O)Cc2cccc(C(F)(F)F)c2)c2c(N)ncnc21` — result for “nuclear SOX9 intensity”: 100 % of DMSO.
`CC[S+]([O-])c1nc(-c2cccc(OCc3ccccc3)c2)cc(C(F)(F)F)n1` (stereo not drawn) — result for “nuclear SOX9 intensity”: 120 % of DMSO.
`CC(C)(C)c1ccc(C(=O)Nc2cn3cc(-n4ccnc4)ccc3n2)cc1`: “nuclear SOX9 intensity” 107 % of DMSO.

Block 5
Target: Dual specificity tyrosine-phosphorylation-regulated kinase 2 (DYRK2, Homo sapiens, UniProt Q92630)
Effect on: enzyme activity
Mode: inhibitor
Tested at: 0.5 µM
Relative to: control
Construct (Q92630 1-601): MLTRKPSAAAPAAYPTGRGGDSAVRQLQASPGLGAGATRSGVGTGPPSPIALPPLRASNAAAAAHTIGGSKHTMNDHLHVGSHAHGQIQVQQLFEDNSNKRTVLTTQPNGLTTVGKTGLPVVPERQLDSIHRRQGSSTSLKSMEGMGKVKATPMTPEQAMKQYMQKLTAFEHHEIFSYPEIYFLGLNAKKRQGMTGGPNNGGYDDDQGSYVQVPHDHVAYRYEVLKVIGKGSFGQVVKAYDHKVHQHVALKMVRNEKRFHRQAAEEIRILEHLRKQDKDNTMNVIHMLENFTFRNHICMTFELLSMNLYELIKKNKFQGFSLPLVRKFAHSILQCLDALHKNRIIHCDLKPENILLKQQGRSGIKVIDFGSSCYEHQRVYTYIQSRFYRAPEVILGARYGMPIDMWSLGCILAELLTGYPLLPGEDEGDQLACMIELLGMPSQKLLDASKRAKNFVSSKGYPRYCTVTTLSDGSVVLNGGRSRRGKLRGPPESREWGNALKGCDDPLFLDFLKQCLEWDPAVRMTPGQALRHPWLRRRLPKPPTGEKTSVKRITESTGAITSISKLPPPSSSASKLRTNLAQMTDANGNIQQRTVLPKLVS
With `COc1cc2ncnc(Nc3cccc(Cl)c3)c2cc1OC` the remaining activity was 84.6%.
The remaining activity of `O=C1c2ccccc2-c2n[nH]c3cccc1c23` is reported as 14.2%.
`c1ccc(-c2cnc(Nc3ccc(OCCN4CCCC4)cc3)s2)cc1` has a remaining activity of 95%.
With `Cc1cn(-c2cc(NC(=O)c3ccc(C)c(Nc4nccc(-c5cccnc5)n4)c3)cc(C(F)(F)F)c2)cn1` the remaining activity was 101%.
The remaining activity of `O=C1C(Cl)=C(N2C(=O)CCC2=O)C(=O)c2ccccc21` is reported as 98.6%.
The remaining activity of `COc1cc2c(cc1OC)-c1[nH]nc(Nc3cccc(F)c3)c1C2` is reported as 95.3%.
`Nc1cccc(-c2cc3c(Oc4cccc(O)c4)ncnc3[nH]2)c1` gave a remaining activity of 76.9%.
With `C[C@@H]1CCN(C(=O)CC#N)C[C@@H]1N(C)c1ncnc2[nH]ccc12` the remaining activity was 112%.

Repeated from above (block 2):
Serine/threonine-protein kinase DCLK3 (DCLK3, Homo sapiens, UniProt Q9C098) — remaining binding: 100%.
Dual specificity mitogen-activated protein kinase kinase 2 (MAP2K2, Homo sapiens, UniProt P36507) — remaining binding: 100%.
Tyrosine-protein kinase ABL1, phosphorylated (ABL1, Homo sapiens, UniProt P00519, Q252H) — remaining binding: 86%.
It gave 93% for remaining binding (Serine/threonine-protein kinase Nek10 (NEK10, Homo sapiens, UniProt Q6ZWH5)).
The remaining binding was 100% (Tyrosine-protein kinase Yes (YES1, Homo sapiens, UniProt P07947)).
The remaining binding was 100% (Phosphatidylinositol 4,5-bisphosphate 3-kinase catalytic subunit delta isoform (PIK3CD, Homo sapiens, UniProt O00329)).
